Published values gathered from unrelated publications.
A part holds a random share of what one study measured.

Set 1
Target: Phosphate system positive regulatory protein PHO4, full length, GST-tagged (PHO4, Saccharomyces cerevisiae, UniProt P07270, residues 1-312)
Method: competition protein-binding microarray
Molecule type: double-stranded DNA, one strand shown
Medium: in vitro
Concentration: 2 µM
Setting: whole 60-bp probe, lowest competitor level
Added: Cbf1 competitor, 0.05 µM
Direction: higher = stronger binding
Residues (chain): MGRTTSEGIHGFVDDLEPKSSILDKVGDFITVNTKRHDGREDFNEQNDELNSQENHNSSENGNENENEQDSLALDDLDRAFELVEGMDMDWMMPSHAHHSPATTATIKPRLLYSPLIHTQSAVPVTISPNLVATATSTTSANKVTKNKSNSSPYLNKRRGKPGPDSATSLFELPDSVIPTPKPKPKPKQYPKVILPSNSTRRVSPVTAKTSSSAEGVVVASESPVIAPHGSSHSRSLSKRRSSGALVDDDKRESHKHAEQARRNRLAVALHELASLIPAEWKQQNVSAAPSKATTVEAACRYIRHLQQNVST
Strand | fluorescence intensity [a.u.]
CCAAACATTGTTCACCACGATGTTGTTCCAATGTTGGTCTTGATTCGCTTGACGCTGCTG | 11000
ACCCTGAGAATTGGCACCGTGACGGTATTGATTCCAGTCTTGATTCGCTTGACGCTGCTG | 6260
CTTTCCCGATCTTAGCACGTGTTTTTAGCACATTTGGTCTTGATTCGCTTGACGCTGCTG | 17100
CTTAATGGACTAAAGCACGTGACTCGTAAAACCCATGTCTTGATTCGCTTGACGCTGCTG | 16000
CTTTCCCGATCTTGCGACGTGGGTGTAGCACATTTGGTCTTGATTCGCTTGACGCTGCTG | 6820
ACCGCAATGGCGCTTCACGTGTTGGGTAACCACAACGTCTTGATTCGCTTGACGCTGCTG | 12900
TTTCCTCTCCTTCTCTGCGTGCTTTCAAATCTAATTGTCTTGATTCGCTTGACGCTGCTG | 8630
GGACAGATAGATCGGCACGTGTTGAGCCAGTTGTTCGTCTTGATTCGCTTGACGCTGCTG | 19500
TTTTTAATTCGGAATCAGGTGAAAGGTTTTATATCCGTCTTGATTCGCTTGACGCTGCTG | 3240
AAATTACTAAGTTGCTTCGTGGGTGACGCCGTATGAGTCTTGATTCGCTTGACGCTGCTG | 6870
CCCCTCCTGCCTACACGCATGCGGCTTTGATCCTTCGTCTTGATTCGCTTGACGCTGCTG | 6730
CTTTCCCGATCTTGGGAAGTGGGTGTAGCACATTTGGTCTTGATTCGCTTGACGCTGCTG | 4500
AGGATAATCAGCTCTGTCGTGACGGATAAATGCTATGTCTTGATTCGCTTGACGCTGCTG | 4040
AGCTAAGCGTCTACCCACGTAACAAACAATCTTGCCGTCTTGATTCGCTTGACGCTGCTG | 6720
TGCGCAACAACTTGGGTGGTGGGTGTATGTCTAGAAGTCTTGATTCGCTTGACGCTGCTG | 4870
CTTTCCCGATCTTGGTTGGTGGGTGTAGCACATTTGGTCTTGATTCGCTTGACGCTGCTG | 5140
ATTTGGACAAGGTTCCACGTGAGTATGTTCGTTATTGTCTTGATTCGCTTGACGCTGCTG | 14700
CGGGGTTAAGTTTGCGTGGTGGGTGGCTTGCAGCAGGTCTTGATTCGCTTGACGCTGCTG | 6380
GAAACAGCCGCTTGCCACGTTGCTCGATAAGTTCTTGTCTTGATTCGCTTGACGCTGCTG | 14600
AAAAAACGAATGACTCACGTTATCAGGCTCATAGCTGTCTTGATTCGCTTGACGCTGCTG | 5950
CCGACGAAACCGTTCCACGTGTGTTCGACTTGAAAAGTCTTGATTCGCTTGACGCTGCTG | 17500
GTCTTGTCTCATTGATGTGTGGGTGTCCCCACTTCAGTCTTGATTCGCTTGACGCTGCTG | 4960
ATACTTTCATCACATCAGGTGGTTTAGGTACGATGGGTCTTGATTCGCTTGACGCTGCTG | 5530
CGTCACCAGCGTCACCACGGGGACCCGCCCCGAAATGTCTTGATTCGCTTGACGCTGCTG | 10400
CACTCCCGCAGTCCTGGCGTGATGGGCCACTGCAGTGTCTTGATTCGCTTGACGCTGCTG | 4630

Set 2
Target: Prothrombin, mature alpha-thrombin (F2, Homo sapiens, UniProt P00734)
Method: aptamer microarray, sandwich
Molecule type: DNA with 2'F-ANA
Medium: in vitro
Concentration: 200 nM
Setting: whole 15-mer aptamer, many near background
Added: Cy3 exosite-II aptamer, 400 nM
Direction: higher = stronger binding
Strand: GGTTGGTGTGGTTGG
Modification | mean fluorescence intensity [a.u.]
2'F-ANA at 2 6 8 11 12 | 568
2'F-ANA at 1 2 3 4 8 12 14 | 87.8
2'F-ANA at 2 5 6 8 10 12 13 | 47.5
2'F-ANA at 2 8 9 11 14 | 128
2'F-ANA at 1 2 3 10 12 13 15 | 91.2
2'F-ANA at 1 3 4 5 6 7 9 10 13 | 48.1
2'F-ANA at 2 5 11 15 | 61.9
2'F-ANA at 1 2 3 4 5 8 10 11 14 15 | 53.8
2'F-ANA at 1 3 10 12 14 | 59.9
2'F-ANA at 1 2 3 4 5 6 7 8 10 12 14 | 52.1
2'F-ANA at 1 4 5 7 8 9 12 13 | 73.6
2'F-ANA at 3 5 6 8 10 11 12 13 14 | 54.2
2'F-ANA at 1 2 7 9 12 | 346
2'F-ANA at 1 2 3 4 5 8 9 14 | 49.2
2'F-ANA at 1 5 8 9 10 12 | 66.1
2'F-ANA at 1 3 6 9 10 11 12 | 123
2'F-ANA at 2 4 5 6 8 10 11 13 14 | 52.8

Set 3
Target: RNA binding protein fox-1 homolog 2, RRM domain, GST-SBP tag (RBFOX2, Homo sapiens, UniProt O43251-10, residues 100-194)
Method: RNA Bind-n-Seq
Molecule type: RNA
Medium: in vitro
Concentration: 365 nM
Setting: natural RNA segment, single round, ends assumed
Baseline: no-protein control
Direction: higher = stronger binding
Construct (chain): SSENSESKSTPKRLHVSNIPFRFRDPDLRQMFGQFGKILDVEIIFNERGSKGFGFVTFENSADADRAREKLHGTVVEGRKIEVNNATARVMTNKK
Strand | RBNS enrichment (R)
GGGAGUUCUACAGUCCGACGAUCGGGGAGGUAGCUUUCUGUAUAAGACUCUGAUUCUAAAGAGAUGAAGACUUGUGUGAAUGUACAAAGGUUUGCAUUGUAGCUGUUAGAACAGCACAGCAGGGAGUACACGAUGGAAUUCUCGGGUGCCAA | 0.634
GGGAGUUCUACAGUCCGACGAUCAAAAUUCAAACUGCCUAUAUUGAUAAAACCAUACAGUGAGCCAGCCUUGCAGUAGGCAGUAGACUAUAAGCAGAAGCACAUAUGAACUGGACCUGCACCAAAGCUGGCACUGGAAUUCUCGGGUGCCAA | 0.351
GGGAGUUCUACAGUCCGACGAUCCAGGCGGGACUCGUGUCCCAGAGAGGAAGGGGCUGCUGAGGUCUGAUGGGGCCCUUCCUCCGGGUGACCCCACAGGGCCUUUCCAAGCCCCCAUUUGAGCUGCUCCUUCCUGGAAUUCUCGGGUGCCAA | 0.2
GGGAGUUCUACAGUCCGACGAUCCACUUUGUUAGAUGUAAAAUAAACCACGGGCCUUCCACAUGGGGUGACCCCCGCCCUGUCCCUUUCAGUUUUGUCUGGGAGGGAGCACUAAAGCCUUUCCAGAGACUAUGUGGAAUUCUCGGGUGCCAA | 0.24
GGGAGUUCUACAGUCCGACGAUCCAAGCAACUGAAUUUAUAUGUAAAAAUAACAUUUAGACCUGUGGAUCAAAGAUUAUUUUCAAAAAUGAGAUAUCAAUUUGGUAUCAGUAAAAAGUGUCUUUUCUCUUAGUUGGAAUUCUCGGGUGCCAA | 0.395
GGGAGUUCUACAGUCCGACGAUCUUACUUUACACAUACGUGUAUGUACACACACACACACAAUACAAGACAUUUUUCCUGUUUUAGAAAAUAUAGCCCUUGUUUGGAUUACUGCUGUCUGAGCACUAGAAAUUUGGAAUUCUCGGGUGCCAA | 0.632
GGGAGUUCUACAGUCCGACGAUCUUGUCCUCUGCUGUCUCCUCUGGUCCUGAGAUGAGCUGUGAGCCUAGGUGGCCAAGGCUUCCUGCAUUGCUUCCCUGUGAGUCCAAGGCCUUCCCCCACCACUGGGCAGAUGGAAUUCUCGGGUGCCAA | 0.278
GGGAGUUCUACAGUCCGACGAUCAUUAAAAUAACUAUCAGGCAGAAGAAUCUUUCUUCUUGCCUAGGAUUUCAGCCAUGUGCGUGCGCUCUCUCUCUCUCUCUCUCUCUCUCUCUCUCUCUCUCUCUCUCUCUUGGAAUUCUCGGGUGCCAA | 1.01
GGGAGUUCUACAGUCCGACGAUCUUGACGUUGCCUUUUAAGCCUUUUACAUACACUGGUCAGUUCGGAAAAUUCUCAACAAUAAUGUUUGCCUUCUAGUUUAAGACAUGGUGUAUUUUAGAAAUUACCUGAAGUGGAAUUCUCGGGUGCCAA | 0.66

Set 4
Target: Interferon regulatory factor 7, full length, phosphomimetic (IRF7, Homo sapiens, UniProt Q92985, residues 1-503, S101K/S471D/S472D/S475D/S476D/S477D/S483D/S484D/S487D)
Method: protein-binding microarray
Molecule type: double-stranded DNA, one strand shown
Medium: in vitro
Concentration: 250 nM
Setting: 60-bp whole probe
Added: salmon DNA 0.4 mg/ml
Baseline: random background probes
Direction: higher = stronger binding
Constant ends, left off below: GCCTAGCAC … GTCTTGATTCGCTTGACGCTGCTG
Residues (chain): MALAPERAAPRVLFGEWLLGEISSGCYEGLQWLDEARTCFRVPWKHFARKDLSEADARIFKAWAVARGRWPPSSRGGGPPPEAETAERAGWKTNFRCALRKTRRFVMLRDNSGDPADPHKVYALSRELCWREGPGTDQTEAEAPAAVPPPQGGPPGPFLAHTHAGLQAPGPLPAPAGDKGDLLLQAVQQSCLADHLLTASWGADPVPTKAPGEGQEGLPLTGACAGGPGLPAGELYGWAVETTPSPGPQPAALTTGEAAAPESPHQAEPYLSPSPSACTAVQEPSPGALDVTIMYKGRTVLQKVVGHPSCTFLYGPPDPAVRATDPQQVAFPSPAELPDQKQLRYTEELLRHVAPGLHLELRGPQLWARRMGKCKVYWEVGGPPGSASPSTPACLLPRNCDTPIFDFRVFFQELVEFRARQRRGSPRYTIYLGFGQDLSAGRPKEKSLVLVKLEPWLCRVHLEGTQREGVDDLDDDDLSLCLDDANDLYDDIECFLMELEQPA
Strand | log fluorescence
GGCTTTGACTCTTTCTGTCAGTGCTAG | 0.00758 z-score
TTAGGTATCGGTATCGGTCAGTGCTAG | 1.41 z-score
GGTCTTTCCACTTTCTTTTGGTGCTAG | 2 z-score
TTGGGACTGGACACTGGGTTAGTGCTA | -0.75 z-score
TTATTTAGGATAGAACTATAGTGCTAG | 0.771 z-score
GGAAGTATGACTCTGCCTCTGTGCTAG | -0.773 z-score
TCATATTTAAGACCTATGACTGTGCTA | 0.729 z-score
GTAGGTCTCCTTATCCTTTAGTGCTAG | -0.0266 z-score
GACGGTCTCCTGTTCCTGACGTGCTAG | 0.119 z-score
GACGATTTCAGACTGGATACGTGCTAG | 0.034 z-score
GACCGTCTCGGTTTCGGGACGTGCTAG | 4.88 z-score
GACGGTATCAGTTTCGAGACGTGCTAG | 4.08 z-score
TTCATTTTGTGTCTGGGCATGTGCTAG | 0.337 z-score
TTAGATATCGGGACTGCATTAGTGCTA | -0.207 z-score
TTCTCTCCCATTCTGAATTCGTGCTAG | 1.14 z-score
TCAAAAATGCCCTTTTGGACTGTGCTA | 0.0153 z-score
GACCGTATCGGACTGGGGACGTGCTAG | 0.37 z-score
TCCCATTAAATTTTAATAACGTGCTAG | 0.447 z-score
CACGGTCTCCTACTGCTGACGTGCTAG | -0.255 z-score
TTAGGTCTCCTAATGCTTTAGTGCTAG | 0.227 z-score
GACGGTTTCCTTCTCCTCACGTGCTAG | 2.41 z-score

A few entries again (set 2):
Modification | mean fluorescence intensity [a.u.]
2'F-ANA at 2 6 8 11 12 | 568
2'F-ANA at 1 2 3 4 8 12 14 | 87.8
2'F-ANA at 2 5 6 8 10 12 13 | 47.5
2'F-ANA at 2 8 9 11 14 | 128
2'F-ANA at 1 2 3 10 12 13 15 | 91.2
2'F-ANA at 1 3 4 5 6 7 9 10 13 | 48.1
2'F-ANA at 2 5 11 15 | 61.9
2'F-ANA at 1 2 3 4 5 8 10 11 14 15 | 53.8
2'F-ANA at 1 3 10 12 14 | 59.9
